Assay results from different studies.
Protocols differ between the studies behind these lines. Numbers after ± are the reported error.

| Structure (SMILES) | test | system | setting | AUC(0-24) |
| --- | --- | --- | --- | --- |
| CC(C)[C@H](N)C(=O)NCCCS(=O)(=O)O |  | human both sexes, plasma | oral, 171 mg once daily, day 1, fasted capsule | 6260 ng·h/mL |
| COc1cc(C(=O)NC2CCN(C)CC2)c(F)cc1Nc1ncc(C(F)(F)F)c(Oc2cccc3c2C(=O)N(C)C3)n1 |  | human patients | oral, 50 mg, cycle 1 day 1, geometric mean | 2.86 µM·h |
| N#Cc1ccc2c(c1)[C@H]1CCCN(C(=O)c3ccc4[nH]cnc4c3)[C@H]1C2 |  | human, plasma | oral, 80 mg once daily, after first dose | 55.7 µM·h |
| Cc1cc(Nc2cc3ncccc3c(N[C@@H]3C[C@H]4CC[C@@H](C3)N4CCC#N)n2)n[nH]1 |  | human | 30 mg, day 1 | 3.01 ng·h/mL |
| Cn1c(=O)oc2ccc(-c3ccc(C[C@@H](C#N)NC(=O)[C@@H]4CNCCCO4)cc3)cc21 | HPLC-MS/MS | healthy male humans, plasma | oral, 40 mg | 15.7 µM·h |
| CO[C@H]1CC[C@H](N2C(=O)CNc3ncc(-c4ccc(C(C)(C)O)nc4)nc32)CC1 |  | human, plasma | oral, 15 mg, day -1, geometric mean | 379 ng·h/mL |
| C[C@@H]1CCO[C@H]2Cn3cc(C(=O)NCc4ccc(F)cc4F)c(=O)c(O)c3C(=O)N12 |  | human paediatric patients, weight sample B to under sample C kg, plasma | oral, 50 mg film-coated tablet, steady state, geometric mean, population PK post-hoc, N 6 | 57300 ng·h/mL |
| CC(=O)O[C@H]1C(=O)[C@@]2(C)[C@H]([C@H](OC(=O)c3ccccc3)[C@]3(O)C[C@H](OC(=O)[C@H](O)[C@@H](NC(=O)c4ccccc4)c4ccccc4)C(C)=C1C3(C)C)[C@]1(OC(C)=O)CO[C@@H]1C[C@@H]2O |  | human patients, plasma | intravenous, 80 mg/m^2, day 1 | 2.53 ± 1.42 µM·h |
| Cc1nc(-c2ccc(OCC(C)C)c(C#N)c2)sc1C(=O)O |  | human, plasma | oral, 10 mg once daily, together with: verinurad 5 mg | 975 ng·h/mL |
| CC(=O)O.NC(=O)c1cnc(N[C@@H]2CCCC[C@@H]2N)nc1Nc1cccc(-n2nccn2)c1 |  | human, plasma | oral, 11 mg once daily | 106 ng·h/mL |
| Cc1ccc([C@@H]2O[C@H](CO)[C@@H](O)[C@H](O)[C@H]2O)cc1Cc1ccc(-c2ccc(F)cc2)s1 |  | human, maintenance hemodialysis patients | oral, 300 mg once daily, day 8, steady state, median | 19000 ng·h/mL |
| CC(C)(Sc1ccncc1-c1ccc(C#N)c2ccccc12)C(=O)O |  | human, plasma | oral, 5 mg once daily, together with: febuxostat 40 mg | 122 ng·h/mL |
